Measurements pooled from the literature.
A part holds a random share of what one study measured.

Sample 1
Target: Replicase polyprotein 1ab, nsp13 helicase (rep, Severe acute respiratory syndrome coronavirus 2, UniProt P0DTD1)
Action: inhibitor
Concentration: 20 µM
For `CCC(CC)O[C@@H]1C=C(C(=O)O)C[C@H](N)[C@H]1NC(C)=O`, the inhibition was 0.92%.
`Cc1ccc(CNc2ncnc3ccc(-c4ccc(CO)o4)cc23)o1` gave an inhibition of 4.16%.
The inhibition of `CCCCCCc1ccc(O)cc1O` is reported as -26%.
`CCCCOc1nc(N)c2c(n1)N(Cc1cccc(CN3CCCC3)c1)CC(=O)N2` has an inhibition of 10%.
For `N[C@H]1CC[C@H](N[C@@H]2C[C@H]2c2ccccc2)CC1`, the inhibition was 4.32%.
With `CC(Cc1cccc(C(F)(F)F)c1)NCCOC(=O)c1ccccc1` (stereo not shown) the inhibition was 2%.
For `Cn1ncc2c(N3CCOCC3)nc(-c3cccc(O)c3)nc21`, the inhibition was 6.76%.
With `COc1ccccc1OCC(O)COC(N)=O` (stereo not shown) the inhibition was 2.78%.
With `CCCCCCCCCCCCCCCCCCOC[C@H](COP(=O)([O-])OCC[N+](C)(C)C)OC` the inhibition was 2.26%.
`C[N+](C)(C)CCOP(=O)([O-])OC[C@H](O)CO` has an inhibition of 1.87%.
`CN1CCN(C(=O)c2nc3ccc(Cl)cc3[nH]2)CC1` gave an inhibition of 6.94%.
`CO/N=C(\C(=O)N[C@@H]1C(=O)N2C(C(=O)O)=CCS[C@H]12)c1csc(N)n1` gave an inhibition of -0.58%.
`C/C(=C\C(=O)OCCCCCCCCC(=O)O)C[C@@H]1OC[C@H](C[C@@H]2O[C@H]2[C@@H](C)[C@H](C)O)[C@@H](O)[C@H]1O` has an inhibition of 6.29%.
The inhibition of `CCOCCOc1ccccc1C(N)=O` is reported as 3.74%.
`O=C(O)c1ccccn1` has an inhibition of -3.57%.
The inhibition of `C[C@H]1O[C@@H](n2cc(F)c(=O)[nH]c2=O)[C@H](O)[C@@H]1O` is reported as 3.12%.
`CCS(=O)(=O)N1CCC[C@@H]2CN3CCc4cc(OC)ccc4[C@@H]3C[C@@H]21` gave an inhibition of 0.28%.
With `CNC(=O)c1cc(Oc2ccc(NC(=O)Nc3cc(C(C)(C)C)nn3-c3ccc4ncccc4c3)c(F)c2)ccn1` the inhibition was 0.06%.
With `Cn1c(=O)n(-c2ccc(C(C)(C)C#N)cc2)c2c3cc(-c4cnc5ccccc5c4)ccc3ncc21` the inhibition was -1.01%.
`CC(C)[N+](C)(CCC(C(N)=O)(c1ccccc1)c1ccccc1)C(C)C` gave an inhibition of -3.33%.
The inhibition of `CCCCOC(=O)c1ccc(N)cc1` is reported as -2.99%.
For `CN(C)CCCn1cc(C2=C(c3c[nH]c4ccccc34)C(=O)NC2=O)c2ccccc21`, the inhibition was 21.9%.
For `CN1C(=O)COc2c(C(=O)NC3CN4CCC3CC4)cc(Cl)cc21` (stereo not shown), the inhibition was 3.89%.
The inhibition of `O=c1ncccn1[C@@H]1O[C@H](CO)[C@@H](O)[C@H]1O` is reported as 4.36%.
With `O=C(/C=C/c1ccc(O)c(O)c1)c1ccc(O)cc1O` the inhibition was -0.62%.

Sample 2
Target: ATP-dependent RNA helicase DDX3X, helicase core (DDX3X, Homo sapiens, UniProt O00571, residues 132-607)
Sequence of UniProt O00571 (132-607, looked up): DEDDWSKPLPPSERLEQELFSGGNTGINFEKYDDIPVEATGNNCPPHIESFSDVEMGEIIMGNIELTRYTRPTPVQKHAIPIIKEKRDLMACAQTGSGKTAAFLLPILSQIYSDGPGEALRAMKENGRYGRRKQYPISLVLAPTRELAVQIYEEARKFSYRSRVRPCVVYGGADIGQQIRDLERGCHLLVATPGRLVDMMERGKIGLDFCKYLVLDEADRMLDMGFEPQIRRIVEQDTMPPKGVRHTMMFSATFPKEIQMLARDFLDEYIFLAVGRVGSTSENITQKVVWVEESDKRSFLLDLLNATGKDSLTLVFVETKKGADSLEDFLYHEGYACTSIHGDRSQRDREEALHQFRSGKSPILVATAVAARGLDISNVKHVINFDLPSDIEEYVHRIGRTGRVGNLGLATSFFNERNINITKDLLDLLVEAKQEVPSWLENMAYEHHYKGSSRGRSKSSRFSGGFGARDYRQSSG
Method: RNA Bind-n-Seq
Form: RNA
Sample: in vitro
Concentration: 90 pmol
Setting: 4-mer, random 30-nt RNA, single round
Together with: 3 µM DMDA-PatA, 2 mM ADP, 2 mM phosphate
Baseline: input library
Reading: higher = stronger binding
`AUAU` has a 4-mer enrichment of 1.01 fold.
The 4-mer enrichment of `CUAC` is reported as 0.848 fold.
`GAUC` has a 4-mer enrichment of 0.813 fold.
`GGUA` has a 4-mer enrichment of 1.01 fold.
With `GACA` the 4-mer enrichment was 0.925 fold.
`UAUC` has a 4-mer enrichment of 0.886 fold.

Sample 3
Target: RING finger protein unkempt homolog, zinc fingers 1-6, GST-SBP tag (UNK, Homo sapiens, UniProt Q9C0B0, residues 30-357)
Sequence of UniProt Q9C0B0 (30-357, looked up): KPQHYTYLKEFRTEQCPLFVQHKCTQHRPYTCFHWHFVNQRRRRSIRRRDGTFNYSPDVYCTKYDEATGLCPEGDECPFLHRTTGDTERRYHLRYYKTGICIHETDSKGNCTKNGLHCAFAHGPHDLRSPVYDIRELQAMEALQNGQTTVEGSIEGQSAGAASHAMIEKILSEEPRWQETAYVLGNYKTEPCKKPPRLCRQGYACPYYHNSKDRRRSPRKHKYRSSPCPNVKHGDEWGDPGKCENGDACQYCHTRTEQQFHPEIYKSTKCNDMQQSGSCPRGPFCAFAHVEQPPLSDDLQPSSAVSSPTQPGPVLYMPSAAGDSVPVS
Method: RNA Bind-n-Seq
Form: RNA
Sample: in vitro
Concentration: not given
Setting: RNA with constant flanks, human and mouse sites, ends assumed
Baseline: input RNA pool
Reading: higher = stronger binding
The bound/input enrichment of `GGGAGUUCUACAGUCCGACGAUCCAAGGAAUGUUUCGGCAGGGAAGCUGGCCCGAGGCUGCGGGUGGCAUCUGAAGGCACUGGUAGGUGUGGAAGAGGCCCCACAGAUGCCAGACUGCACCAAGAAUUAGUAUCUUUCACAGCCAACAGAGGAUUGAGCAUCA` is reported as 0.942 ratio.
The bound/input enrichment of `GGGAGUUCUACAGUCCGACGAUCUUCUUUCCCCGAAACCCAUCGAGCUCCAGCAUGAACUCGGUUCUGGGGAAUCAUCACCCAACUCCCAGCCAUGGCCCUGAUGGGGCGGUGCCUACCAUGGCUGAUGACCUGGGGGAGCCACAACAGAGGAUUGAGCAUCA` is reported as 0.115 ratio.
The bound/input enrichment of `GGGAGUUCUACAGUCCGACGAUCAUCAUCUGCAUCGUCACGUACGUGCUGAACUUCCUUCUUCUCAUUAUCAACUACAAACGACUAGUUUACUUGAACGAGGCCUGGAAGCGGCAGCUGCAACCCAAGCAGGACUGACGCCCGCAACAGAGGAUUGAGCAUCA` is reported as 0.162 ratio.
With `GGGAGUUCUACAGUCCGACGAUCCUGAGAGAGCUGACAUCCCAGCAUCCUUACGCAGAAGUCUUCAUCGGCCGGCCACACGUCUGGACUGUGGAUCUCAAUAACCGAGAGGAAGUAGAAGAUGCAGUAAAAGCCAUCUUAAACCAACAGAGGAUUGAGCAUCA` the bound/input enrichment was 0.18 ratio.
`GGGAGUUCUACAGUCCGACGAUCCCCUUUCAGUUUAUUUUCCUUCCUUAUUUUGUUAUACAUACCCUUCCCUUUCUCCCCUGCCUUUCGUACAUUCAUUCCUCUUCCUCUACCCUCCAGCACAUCUACUUACUGGUGCUGUGCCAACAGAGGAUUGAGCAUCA` has a bound/input enrichment of 2.13 ratio.
`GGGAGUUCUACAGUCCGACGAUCCGGAGUGUGCGGCUAGUCAGAGACAAAGACACAGACAAAUUUAAAGGGUUCUGCUAUGUAGAAUUUGAUGAGGUGGAUUCCCUGAAGGAGGCUCUGACUUAUGACGGUGCACUCUUGGGUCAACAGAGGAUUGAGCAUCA` gave a bound/input enrichment of 0.177 ratio.
For `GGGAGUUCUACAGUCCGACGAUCACCAGAGAGAUGCCAUCACCAAAAUGAAAGAUGUGUACCUAAAGAACCCUCAGAUGGGAGACCCAGCCAGCCUGGACCAGAAGCUCACCGAAGUCACCCAGAACAUAGAGAAACUGCGGCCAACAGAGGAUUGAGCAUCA`, the bound/input enrichment was 0.202 ratio.
`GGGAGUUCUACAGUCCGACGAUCAGAACUCAUGGAAAUAGAAGUGAGUGAAAAUGUGAUACAAGUUCACUUAAAUGGACUCCUGCAGACAAAUGAAAAAAUUGCUCUGAAAGAGAUCACAAGACAAUUAAAUCUAGACAAUGUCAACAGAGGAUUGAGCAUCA` has a bound/input enrichment of 0.419 ratio.

Sample 4
Target: Replicase polyprotein 1ab, main protease (rep, Severe acute respiratory syndrome coronavirus 2, UniProt P0DTD1)
Observed: enzyme activity
Action: inhibitor
Concentration: 20 µM
Setting: primary screen
The inhibition of `Cc1ccc(S(=O)(=O)N[C@@H](Cc2ccccc2)C(=O)CCl)cc1` is reported as 99.7%.
With `NC(=S)NN=Cc1ccncc1` the inhibition was 48.4%.
With `O=C(O)[C@@H](S)[C@@H](S)C(=O)O` the inhibition was 99.3%.
`C=Cc1c(C)c2cc3nc(c(CC(=O)O)c4[nH]c(cc5nc(cc1[nH]2)C(C)=C5CC)c(C)c4C(=O)O)C(CCC(=O)O)C3C` (stereo not shown) has an inhibition of 50.8%.
`O=[N+]([O-])c1ccc(O)c2ncccc12` has an inhibition of 27.4%.

Sample 5
Cell line: HEK-293T
Observed: pseudovirus infection
Method: FDA-approved drug library screen
Organism: VSV pseudotyped with SARS-CoV-2 spike
Concentration: 10 µM
Time: 16 h
Baseline: vehicle-treated
For `CCS(=O)(=O)CCn1c([N+](=O)[O-])cnc1C`, the GFP-positive cells was 95.6%.
For `CCC1(c2ccc(N)cc2)CCC(=O)NC1=O` (stereo not shown), the GFP-positive cells was 77.3%.
`C[C@H](N)[C@H](O)c1cccc(O)c1` has a GFP-positive cells of 113%.
For `O=C1c2cccc3c2[C@H](CCC3)CN1[C@@H]1CN2CCC1CC2`, the GFP-positive cells was 88.4%.

Single results of other studies
Method: protein-binding microarray
Form: hairpin DNA
Sample: in vitro
Concentration: not given
Setting: whole hairpin DNA, median over replicate spots
Baseline: not given
Reading: higher = stronger binding
ATF1 full length: Cyclic AMP-dependent transcription factor ATF-1, full length (ATF1, Homo sapiens, UniProt P18846, residues 1-271)
Sequence of UniProt P18846 (whole entry, looked up): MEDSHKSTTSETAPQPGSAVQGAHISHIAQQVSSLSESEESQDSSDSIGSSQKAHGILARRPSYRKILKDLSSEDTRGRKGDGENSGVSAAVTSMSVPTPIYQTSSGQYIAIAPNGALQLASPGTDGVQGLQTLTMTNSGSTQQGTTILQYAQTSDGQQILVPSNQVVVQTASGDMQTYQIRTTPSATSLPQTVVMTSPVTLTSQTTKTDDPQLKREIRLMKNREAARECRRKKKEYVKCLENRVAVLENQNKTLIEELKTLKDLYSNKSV
`GAGGCCGGCGGACGTCAGCCTCCTGGCTGACGTCCGCCGGCCTCACACTC (5mC at 35)` has a median fluorescence of 4850 a.u. (ATF1 full length).
With `CGGACCGGCCCGGGCATGTCTCCTGACATGCCCGGGCCGGTCCGACACTC (5mC at 38)` the median fluorescence was 12200 a.u. (Cellular tumor antigen p53, full length (TP53, Homo sapiens, UniProt P04637, residues 1-393)).
`GAGGCCGGCAGACGTCAGCCTCCTGGCTGACGTCTGCCGGCCTCACACTC` gave a median fluorescence of 5030 a.u. (ATF1 full length).
The median fluorescence of `GAGGCCTGGTGTGGTTGGCCTCCTGGCCAACCACACCAGGCCTCACACTC` is reported as 2160 a.u. (Runt-related transcription factor 1, full length (RUNX1, Homo sapiens, UniProt Q01196-8, residues 1-480)).

Some of these lines once more (sample 4):
`O=[N+]([O-])c1ccc(O)c2ncccc12` has an inhibition of 27.4%.
`C=Cc1c(C)c2cc3nc(c(CC(=O)O)c4[nH]c(cc5nc(cc1[nH]2)C(C)=C5CC)c(C)c4C(=O)O)C(CCC(=O)O)C3C` (stereo not shown) has an inhibition of 50.8%.
The inhibition of `Cc1ccc(S(=O)(=O)N[C@@H](Cc2ccccc2)C(=O)CCl)cc1` is reported as 99.7%.
